{"data": "Assay results pooled from the literature", "organism": "Staphylococcus aureus", "note": "Protocols differ between the studies behind these lines."}
{"Structure (SMILES)": "CN[C@@H]1[C@H](O)[C@H](NC)[C@H]2O[C@]3(O)[C@H](O[C@@H]2[C@H]1O)O[C@H](C)C[C@H]3NC(=O)Cc1ccccc1", "test": "microbial growth, broth dilution", "test system": "8325", "MIC": "100 µg/mL"}
{"Structure (SMILES)": "Cc1ccc2[nH]c3c(c2c1)CCCC3NCCc1ccc(O)cc1 (stereo not shown)", "test": "broth microdilution", "test system": "USA300 JE2 MRSA", "MIC": "16 µg/mL"}
{"Structure (SMILES)": "CC[C@H](C)[C@H](NC(=O)[C@@H](CCCNC(=N)N)NC(=O)[C@H](CCCNC(=N)N)NC(=O)[C@H](Cc1ccccc1)NC(=O)[C@H](Cc1c[nH]c2ccccc12)NC(=O)[C@H](CCCNC(=N)N)NC(=O)[C@@H]1CCCN1C(=O)[C@H](CCCNC(=N)N)NC(=O)[C@@H]1CCCN1C(=O)[C@H](CC(C)C)NC(=O)[C@H](Cc1ccc(O)cc1)NC(=O)[C@@H]1CCCN1C(=O)[C@@H]1CCCN1C(=O)[C@H](CCCCN)NC(=O)[C@H](CC(=O)O)NC(=O)[C@@H](N)C(C)C)C(=O)N[C@@H](Cc1ccc(O)cc1)C(=O)N[C@@H](CC(N)=O)C(=O)N[C@H](CCCNC(=N)N)C(N)=O", "test": "broth microdilution", "test system": "DSM 6247", "conditions": "18 h, 37 °C, 25% MHB2", "MIC": "64 µg/mL"}
{"Structure (SMILES)": "CC[C@H](C)[C@H](NC(=O)[C@H](CC(C)C)NC(=O)[C@H](CCCNC(=N)N)NC(=O)CNC(=O)CNC(=O)[C@H](CCCCN)NC(=O)[C@H](CCCNC(=N)N)NC(=O)[C@H](CC(C)C)NC(=O)[C@H](CC(C)C)NC(=O)[C@H](CCCNC(=N)N)NC(=O)[C@@H](NC(=O)[C@H](CC(C)C)NC(=O)[C@@H](N)CO)[C@@H](C)O)C(=O)NCC(=O)N[C@@H](Cc1c[nH]c2ccccc12)C(=O)N[C@@H](CCCNC(=N)N)C(=O)N[C@@H](Cc1c[nH]c2ccccc12)C(=O)N[C@@H](CCC(=O)O)C(=O)N[C@@H](CCCCN)C(=O)N[C@H](C(=O)N[C@@H](CCCNC(=N)N)C(=O)N[C@@H](CC(N)=O)C(=O)N[C@@H](Cc1c[nH]c2ccccc12)C(=O)N[C@H](C(=O)N[C@@H](CCCNC(=N)N)C(=O)N[C@@H](CCCNC(=N)N)C(=O)N[C@H](C(=O)N[C@H](C(=O)N[C@@H](CCC(=O)O)C(=O)N[C@@H](CCCCN)C(=O)N[C@@H](CCCNC(=N)N)C(=O)N[C@@H](CCCCN)C(=O)N1CCC[C@H]1C(=O)N[C@@H](CC(N)=O)C(=O)N[C@@H](CCCCN)C(=O)O)[C@@H](C)CC)[C@@H](C)CC)[C@@H](C)CC)[C@@H](C)O", "test": "broth microdilution", "test system": "ATCC 25923", "MIC": "1.24 log10 µg/mL"}
{"Structure (SMILES)": "CC1CCN(C(=O)c2cccc(NC(=O)Nc3ccc(N)cc3)c2)CC1", "test": "checkerboard, measured: ceftobiprole", "test system": "CRB, PBP4 overexpressor", "conditions": "25 µM", "MIC": "> 64 µg/mL"}
{"Structure (SMILES)": "CN[C@H](CC(C)C)C(=O)N[C@H]1C(=O)N[C@@H](CC(N)=O)C(=O)N[C@H]2C(=O)N[C@H]3C(=O)N[C@H](C(=O)N[C@H](C(=O)NCC(N)=O)c4cc(O)cc(O)c4-c4cc3ccc4O)[C@H](O)c3ccc(c(Cl)c3)Oc3cc2cc(c3O[C@@H]2O[C@H](CO)[C@@H](O)[C@H](O)[C@H]2O[C@H]2C[C@](C)(NCc3ccc(OCc4cn(CC(=O)N[C@H](C(=O)N[C@@H](CCN)C(=O)N[C@H]5CCNC(=O)[C@H]([C@@H](C)O)NC(=O)[C@H](CCN)NC(=O)[C@H](CCN)NC(=O)[C@H](CC(C)C)NC(=O)[C@@H](CC(C)C)NC(=O)[C@H](CCN)NC5=O)[C@@H](C)O)nn4)c(OC)c3)[C@H](O)[C@H](C)O2)Oc2ccc(cc2Cl)[C@H]1O", "test system": "MRSA USA300", "MIC": "0.093 µM"}
{"Structure (SMILES)": "CCn1c(-c2ccc(F)cc2)c(-c2ccc(F)cc2)n(CC)c1=[Se]", "test": "microbial growth, broth dilution", "test system": "ATCC700699 VISA", "conditions": "24 h, drug-resistant strain", "MIC": "> 40 µM"}
{"Structure (SMILES)": "CC(C)CCCCCCCCC/C=C/C(=O)N[C@@H](CC(N)=O)C(=O)N[C@H]1CNC(=O)[C@@H]2CCCN2C(=O)[C@H](C(C)C)NC(=O)[C@@H](CN)NC(=O)CNC(=O)[C@H](CC(=O)O)NC(=O)CNC(=O)[C@H](CC(=O)O)NC(=O)[C@H](CC(=O)O)NC(=O)[C@H]2CCCCN2C1=O", "test": "broth microdilution", "test system": "BR-VRSA strain 880, Mueller-Hinton broth, Mg2+ 10 mg/L", "conditions": "16 h, added: Ca2+ 1.0 mM", "MIC": "8 µg/mL"}
{"Structure (SMILES)": "Cc1ccc2nc(C)c(C(=O)C(=O)NCc3ccccc3)n2c1", "test": "microbial growth, broth dilution", "MIC": "> 128 µM"}
{"Structure (SMILES)": "CNC(C)C1CCC(N)C(OC2C(N)CC(N)C(OC3OCC(C)(O)C(NC)C3O)C2O)O1 (stereo not shown)", "test system": "clinical isolate", "conditions": "18 to 20 h, 37 °C", "MIC": "2 µM"}
{"Structure (SMILES)": "CC[C@H](C)[C@H](N)C(=O)N[C@H](C)C(=O)N[C@@H](CC(C)C)C(=O)N[C@H](CCC(=O)O)C(=O)N[C@H](C(=O)N[C@H]1CCCCNC(=O)[C@H](CC(N)=O)NC(=O)[C@@H](CC(=O)O)NC(=O)[C@H](Cc2c[nH]cn2)NC(=O)[C@@H](Cc2ccccc2)NC(=O)[C@H]([C@@H](C)CC)NC(=O)[C@@H](CCCN)NC1=O)[C@@H](C)CC", "test system": "ATCC 29213 methicillin-susceptible", "conditions": "18 h, 37 °C, 0.3 mM ZnSO4 LB", "MIC": "> 64 µg/mL"}
{"Structure (SMILES)": "CC[C@H](C)[C@@H]1NC(=O)[C@H](CO)NC(=O)C(C)(CCCCN)NC(=O)[C@@H]2CSSC[C@@H](C(=O)N[C@@H](Cc3ccc(O)cc3)C(N)=O)NC(=O)[C@H](CCCCN)NC(=O)[C@@H]3CSSC[C@H](NC(=O)[C@H](CCCNC(=N)N)NC(=O)C(C)(CC(C)C)NC(=O)[C@H](CC(=O)O)NC(=O)[C@H](CC(=O)O)NC(=O)[C@H](CCC(=O)O)NC(=O)[C@H](CC(N)=O)NC(=O)[C@H](Cc4c[nH]c5ccccc45)NC(=O)C(C)(CC)NC(=O)CNC(=O)[C@H](CC(N)=O)NC(=O)[C@@H](NC(=O)CNC(=O)[C@H](Cc4ccccc4)NC(=O)CN)CSSC[C@H](NC(=O)[C@H](Cc4ccc(O)cc4)NC(=O)CNC(=O)CNC(=O)[C@H](CCCCN)NC(=O)[C@H](Cc4ccc(O)cc4)NC(=O)[C@H]4CCCN4C(=O)[C@@H]4CCCN4C1=O)C(=O)N[C@@H](C)C(=O)N[C@@H](CCCCN)C(=O)N1CCC[C@@H]1C(=O)NCC(=O)N[C@@H](Cc1ccccc1)C(=O)N[C@@H](C(C)C)C(=O)N3)C(=O)N[C@@H](Cc1c[nH]cn1)C(=O)NC(C)(C)C(=O)N[C@@H](Cc1c[nH]cn1)C(=O)N2 (stereo partly shown)", "test": "broth microdilution", "test system": "USA300 MRSA", "conditions": "18 h", "MIC": "2 µM"}
{"Structure (SMILES)": "CC(C)C[C@@H](NC(=O)[C@@H](CCCNC(=N)N)NC(=O)[C@H](N)CCCNC(=N)N)C(=O)N[C@H](CC(C)C)C(=O)N[C@H](CCCNC(=N)N)C(=O)N[C@H](CCCCN)C(=O)N[C@H](CC(C)C)C(=O)N[C@H](CCCCN)C(=O)NCC(=O)N[C@H](CCCCN)C(=O)N[C@H](CCCCN)C(=O)N[C@H](CC(C)C)C(=O)N[C@H](Cc1ccc(O)cc1)C(=O)N[C@H](CC(C)C)C(=O)N[C@H](Cc1ccc(O)cc1)C(=O)N[C@H](Cc1ccccc1)C(=O)N[C@H](CCCCN)C(=O)N[C@H](CC(C)C)C(=O)N[C@H](CCC(N)=O)C(=O)N[C@H](CC(C)C)C(=O)N[C@H](CC(C)C)C(=O)N[C@H](CCCCN)C(=O)N[C@H](CCCCN)C(N)=O", "test": "broth microdilution", "test system": "KCTC 1621, Mueller-Hinton broth", "conditions": "added: FeCl3 4 µM", "MIC": "16 µM"}
{"Structure (SMILES)": "CN[C@H](CC(C)C)C(=O)N[C@H]1C(=O)N[C@@H](CC(N)=O)C(=O)N[C@H]2C(=O)N[C@H]3C(=O)N[C@H](C(=O)N[C@H](C(=O)N[C@@H](CCCNC(=N)N)C(N)=O)c4cc(O)cc(O)c4-c4cc3ccc4O)[C@H](O)c3ccc(c(Cl)c3)Oc3cc2cc(c3O[C@@H]2O[C@H](CO)[C@@H](O)[C@H](O)[C@H]2O[C@H]2C[C@](C)(NCc3ccc(OCc4cn(CC(=O)N[C@H](C(=O)N[C@@H](CCN)C(=O)N[C@H]5CCNC(=O)[C@H]([C@@H](C)O)NC(=O)[C@H](CCN)NC(=O)[C@H](CCN)NC(=O)[C@H](CC(C)C)NC(=O)[C@@H](CC(C)C)NC(=O)[C@H](CCN)NC5=O)[C@@H](C)O)nn4)c(OC)c3)[C@H](O)[C@H](C)O2)Oc2ccc(cc2Cl)[C@H]1O", "test system": "LIM-2 VISA", "MIC": "3 µM"}
{"Structure (SMILES)": "N=C(N)NCCC[C@@H]1NC(=O)[C@H](CCCNC(=N)N)NC(=O)[C@H](CCCNC(=N)N)NC(=O)[C@@H](CCCNC(=N)N)NC(=O)[C@H](Cc2ccc3ccccc3c2)NC(=O)[C@H](Cc2ccc3ccccc3c2)NC(=O)[C@H](Cc2ccc3ccccc3c2)NC1=O", "test system": "1193193, MRSA", "MIC": "4 µg/mL"}
{"Structure (SMILES)": "COc1ccc(O)c(/C=N/[C@@H]2CCCC[C@@H]2/N=C/c2c(O)ccc3ccc(OC)cc23)c1", "test": "bacterial growth, broth microdilution", "test system": "vancomycin-intermediate", "MIC": "> 40 µM"}
{"Structure (SMILES)": "CN[C@H](CC(C)C)C(=O)N[C@H]1C(=O)N[C@@H](CC(N)=O)C(=O)N[C@H]2C(=O)N[C@H]3C(=O)N[C@H](C(=O)N[C@H](C(=O)NCc4cn(CC(=O)N[C@H](C(=O)N[C@@H](CCN)C(=O)N[C@H]5CCNC(=O)[C@H]([C@@H](C)O)NC(=O)[C@H](CCN)NC(=O)[C@H](CCN)NC(=O)[C@H](CC(C)C)NC(=O)[C@@H](CC(C)C)NC(=O)[C@H](CCN)NC5=O)[C@@H](C)O)nn4)c4cc(O)cc(O)c4-c4cc3ccc4O)[C@H](O)c3ccc(c(Cl)c3)Oc3cc2cc(c3O[C@@H]2O[C@H](CO)[C@@H](O)[C@H](O)[C@H]2O[C@H]2C[C@](C)(N)[C@H](O)[C@H](C)O2)Oc2ccc(cc2Cl)[C@H]1O", "test system": "LIM-2 VISA", "MIC": "0.8 µM"}
{"Structure (SMILES)": "CC[C@H](C)[C@H](NC(=O)[C@@H](CCCNC(=N)N)NC(=O)[C@H](CCCNC(=N)N)NC(=O)[C@@H]1CCCN1C(=O)[C@@H]1CCCN1C(=O)[C@H](Cc1c[nH]cn1)NC(=O)[C@@H]1CCCN1C(=O)[C@H](CCCNC(=N)N)NC(=O)[C@@H]1CCCN1C(=O)[C@H](CC(C)C)NC(=O)[C@H](Cc1ccc(O)cc1)NC(=O)[C@@H]1CCCN1C(=O)[C@@H]1CCCN1C(=O)[C@H](CCCCN)NC(=O)[C@H](CC(=O)O)NC(=O)[C@@H](N)C(C)C)C(=O)N[C@@H](Cc1ccc(O)cc1)C(=O)N[C@@H](CC(N)=O)C(=O)N[C@H](CCCNC(=N)N)C(N)=O", "test": "broth microdilution", "test system": "DSM 6247", "conditions": "18 h, 37 °C, 25% MHB2", "MIC": "> 128 µg/mL"}
{"Structure (SMILES)": "CC1COC2=C1C(=O)C(=O)c1c2ccc2c1C(OC(=O)CNC(=O)CN)CCC2(C)C (mixture of isomers)", "test system": "GDMCC 1.122", "conditions": "48 h", "MIC": "31 µM"}
